Experimental data of several laboratories.
Compare with care: the assays were run in different laboratories.

| SMILES | test | system | conditions | endpoint | value |
| --- | --- | --- | --- | --- | --- |
| O=C(Nc1nc2cccc(-c3ccc(CN4CCS(=O)(=O)CC4)cc3)n2n1)C1CC1 |  | rheumatoid arthritis patients | oral, 150 mg once daily, 4 weeks, TEAE regardless of relatedness | incidence of dizziness | 0% |
| C[C@@H](c1ccc2nccn2c1)n1nnc2ncc(-c3cnn(C)c3)nc21 | item: face oedema | EGFR-mutant MET-altered NSCLC patients | oral, dose not given, AE grade ≥3, all | incidence of treatment-related AEs | 1% |
| NCCONC(=O)[C@@H]1CC[C@@H]2CN1C(=O)N2OS(=O)(=O)O |  | healthy Chinese male subjects | intravenous, 1 g | incidence of any adverse event | 62.5% |
| NC1(C(=O)N[C@@H](CCO)c2ccc(Cl)cc2)CCN(c2nc[nH]c3nccc2-3)CC1 |  | metastatic CRPC patients | 400 mg b.i.d., grade 3 to 4, treatment-related, together with: enzalutamide 160 mg daily | incidence of Blindness | 0% |
| C[C@@H](N)C1CCN(S(=O)(=O)c2cccc3cnccc23)CC1 |  | healthy volunteers | oral, 25 mg, single ascending dose, fasted | incidence of syncope | 0% |
| CCO[C@H]1CCN(Cc2c(OC)cc(C)c3[nH]ccc23)[C@H](c2ccc(C(=O)O)cc2)C1 |  | PNH patients, active haemolysis | oral, 200 mg, 8 weeks, treatment | incidence of GGT increase | 0% |
| C=CC(=O)Nc1cc(Nc2nccc(-c3cn(C)c4ccccc34)n2)c(OC)cc1N(C)CCN(C)C | item: decreased appetite | EGFR-mutant MET-altered NSCLC patients | oral, dose not given, AE grade ≥3, all | incidence of treatment-related AEs | 2% |
| COc1ccc([C@@H](O)c2cc(-c3ncnc4cc(N5CCOCC5)ccc34)c(F)cc2Cl)nn1 |  | locally advanced rectal cancer | oral, 250 mg, together with: capecitabine and radiotherapy | incidence of proctalgia TEAE | 17% |
